Experimental data collected from several papers.
Parts stem from different laboratories: compare values within a part only.

Series 1
Target: RING finger protein unkempt homolog, zinc fingers 1-6, GST-SBP tag (UNK, Homo sapiens, UniProt Q9C0B0, residues 30-357)
Chain of UniProt Q9C0B0 (30-357, looked up): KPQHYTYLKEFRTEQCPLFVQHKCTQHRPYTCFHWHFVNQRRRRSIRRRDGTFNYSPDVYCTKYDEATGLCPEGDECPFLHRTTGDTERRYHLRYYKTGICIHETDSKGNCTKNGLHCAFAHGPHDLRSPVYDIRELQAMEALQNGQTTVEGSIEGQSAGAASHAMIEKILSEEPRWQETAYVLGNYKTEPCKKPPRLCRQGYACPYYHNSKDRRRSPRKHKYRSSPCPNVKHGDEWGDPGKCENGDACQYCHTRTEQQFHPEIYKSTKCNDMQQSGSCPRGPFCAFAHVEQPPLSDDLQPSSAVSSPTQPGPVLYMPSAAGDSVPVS
Technique: RNA Bind-n-Seq
Form: RNA
Medium: in vitro
Concentration: not given
Setting: RNA with constant flanks, human and mouse sites, ends assumed
Baseline: input RNA pool
Direction: higher = stronger binding
Endpoint: bound/input enrichment
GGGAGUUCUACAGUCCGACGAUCUCUUUUGAGGUAGUGGUGCUGGCUGAGCUGUUUGUAGAGAUGCUGCAGAGGGAUUUUGGCUAUAGAAUUUAUAAGACGCUGCUGAGCCUUCCAGAAAAAGUUGUGUCUCCUCCUGAACCUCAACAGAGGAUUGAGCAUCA: 1.05 ratio
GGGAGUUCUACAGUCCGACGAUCGGGGAGAAACCUUAUGAAUGCGUUCAGUGUGGGAAAUCGUAUAGUCAAAGCUCAAAUCUUUUUAGACAUCAGAGAAGACACAAUGCAGAAAAACUUCUGAAUGUUGUGAAAGUUUAAGAACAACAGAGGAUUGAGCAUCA: 0.683 ratio
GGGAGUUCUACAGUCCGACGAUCAUGGAGUAGAUUGUACAUUAAAUGUUUUGUUUCUUUACAUUUUUAUGUUCUGAGUUUUGAAAUAGUUUUAUGAAAUUUCUUUAUUUUUCAUUGCAUAGACUGUUAAUAUGUAUAUAAUACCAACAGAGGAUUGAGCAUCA: 2.78 ratio
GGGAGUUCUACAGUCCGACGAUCGAUCUAAAAAUGGGAAUGAAGUUUGUCAGUGAUGAACAUUAUGAUGAAAACGAAGAUGACUUAGUUUCACAUGUAGAUGGUUCCGUAAUUUCCAGGAGGGAGUGGUAUGUUUAGCAACCACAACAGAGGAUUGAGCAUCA: 0.219 ratio
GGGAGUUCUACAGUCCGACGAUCGACUUUUGUGUAAAGUAAUGCAUGCAAUCUUGUAAUGUGGCCUGAAAACAAGCUAACUGUAUUAGAAACUAUUCAAAAACUAGGUAUUUUUAGUGACCUGUAGGCAGUGGCAAAUACAGACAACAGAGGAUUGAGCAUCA: 3.08 ratio
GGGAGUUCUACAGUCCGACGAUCCUUUUUCACUCCACUGCCCUAGGGGAGUUCAGCAACCUAAUGAUCUCUAUCUCUGAACAUCUCUUCAUCCCAUGCUCCAAGUCCAGCAACCUGCACCCUGGAACCAGGAGUGGACCCUACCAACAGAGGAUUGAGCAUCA: 0.185 ratio
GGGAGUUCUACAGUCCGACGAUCAAAAAACGGAACUUCUCUAAUAGUAUUGAUCUUCCUAGAAAGAGGAUCUCUAACUUCACCAGUAAGAACAUGAAGGAGGUUAAGAGAUCUCCAAAACAGUUGGCUGCUUACAUAAGUAGACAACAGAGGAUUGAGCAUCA: 0.749 ratio
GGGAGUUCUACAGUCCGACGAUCGUUAUUGAAAAACUCUUGACCUCUUACGGAUUCAUUCAGUGUUCAGAACGGCAAGCUAGACUUUUCUUCCACUGUUCACAAUAUAAUGGCAACCUCCAAGACUUAAAAGUAGGAGAUGAUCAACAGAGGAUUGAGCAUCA: 0.271 ratio

Series 2
Target: Histone acetyltransferase KAT6A, winged helix 2, GST fusion (KAT6A, Homo sapiens, UniProt Q92794, residues 85-181)
Technique: protein binding microarray
Form: double-stranded DNA, one strand shown
Medium: in vitro
Concentration: not given
Setting: 8-mer, flanks averaged, mean of 2 arrays, mostly near background
Baseline: not given
Direction: higher = stronger binding
Endpoint: E-score
Residues (chain): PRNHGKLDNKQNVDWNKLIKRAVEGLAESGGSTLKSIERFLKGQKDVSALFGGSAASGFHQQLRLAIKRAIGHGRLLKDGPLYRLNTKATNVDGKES
AGTCGCCG: 0.0901
AGCTGCCT: -0.115
CCAGGTAA: -0.127
TCAGTTAA: -0.105
GAGCTCAA: 0.00248
ATGCTCAA: -0.0781
GACTTAGC: -0.127
CGCCCGAG: 0.109
CTTGACGA: 0.0561
GGACGCAC: 0.0558
AGCACCCT: -0.00607
GGGCTGGA: 0.091
AGCCCAAC: -0.0765
AATCTCAT: -0.0191
ACGAGAGT: -0.0768
ATCAACTG: 0.0467
GCAACAGA: 0.0929
CAACTTGC: -0.156
CCCCCAAC: 0.019
GAATCAGA: 0.0617
AATCGGTG: -0.0397
CTTAGCCA: -0.039
GGAGCAAA: 0.0762
ATTAGAAT: 0.114

Series 3
Target: Sal-like protein 4, full length isoform B (SALL4, Homo sapiens, UniProt Q9UJQ4-2, residues 1-616)
Technique: universal PBM
Form: double-stranded DNA, one strand shown
Medium: in vitro
Concentration: not given
Setting: 8-mer, flanks averaged, mean of replicates
Direction: higher = stronger binding
Endpoint: E-score
CTATGCGC: -0.0269
ATCACGAG: -0.0939
CATTGTTA: 0.219
GAAGGCCC: -0.285
ACGGAAGG: -0.223
TCTGCACA: 0.133
ATCGAGTG: 0.013
CGCGGGTA: -0.187
GAGACACA: -0.00631
GGCGAAAC: -0.169
CGTGGCAG: -0.197
AAGCAACT: 0.112
TTACATAA: 0.361
AAGGGGCG: -0.144
AGTAAATA: 0.355
GCTCACAC: -0.193
AGAACTTG: 0.0758

Series 4
Target: RNA binding protein fox-1 homolog 2, RRM domain, GST-SBP tag (RBFOX2, Homo sapiens, UniProt O43251-10, residues 100-194)
Technique: RNA Bind-n-Seq
Form: RNA
Medium: in vitro
Concentration: 365 nM
Setting: natural RNA segment, single round, ends assumed
Baseline: no-protein control
Direction: higher = stronger binding
Endpoint: RBNS enrichment (R)
Residues (chain): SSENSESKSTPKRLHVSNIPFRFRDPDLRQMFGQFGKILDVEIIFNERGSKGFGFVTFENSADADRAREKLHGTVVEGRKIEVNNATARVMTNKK
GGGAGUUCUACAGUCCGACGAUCUUUCUUCAUGUUUCUUCUUUGUAUAUUUGGUGACUGUAUCGUCAUAGAUGUACAUAUUGUGUCGGUAGGGCUAUGAGGCAUGUUACAGGAAUGUAAUUUUCUCAGAAUUUUGGAAUUCUCGGGUGCCAA: 0.372
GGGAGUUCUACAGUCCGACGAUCGAACAUCUGUGCCCGAUUUUAGUAUGUGCAGGGGGGCGAUCUGGGAAUCAGUCCCCUGUGGAUACCAAGGUACAACUGUAUUUAUUAACGCUUACUAGAUGUGAGGAGAGUGGAAUUCUCGGGUGCCAA: 0.344
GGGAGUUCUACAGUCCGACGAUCAUUGUACUAGGAUUAAAAACAAUAAACUUUCAUGAUAAAGCCGAUGAGAUUCAUGGGCUAUACAGCAUGGGCCCUUUUCUCUUGUUUUCUUAAUUUUAUUUUUAAUUGCUUGGAAUUCUCGGGUGCCAA: 11
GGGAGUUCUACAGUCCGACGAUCAUUCUGAUUGCUCUAUGCUGCUUUCCUCCUCUUAAAGUUUCAUGAGCUCUUGGGUUAAAUGGUUUGUUAUGAGCAGGCUUUCCAUUACUCAUUGUUCUGCGAUUUAUUUUUGGAAUUCUCGGGUGCCAA: 0.419
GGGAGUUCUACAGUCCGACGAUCGUGUGUAUUCCUUUCCACUACAGAAGAACCAUCACUCUCAUGGGUGUCCCAGCCUCCAGCAAGGGCACAGCUCUGUCCCCUGCCUUUCUCUCCCUUUGUCCCCACUGCAUUGGAAUUCUCGGGUGCCAA: 1.06
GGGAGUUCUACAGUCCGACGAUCAACCAGGCUUUGUGGGGGGUGAGAGAAUACAGACACAAGUGGCAGGAUUCAGAUGGAAGCUUCGCAAGGCUGGGGGCCGAGGACCACCCACUUCUCUUUCCCAGCCCUAGUGGAAUUCUCGGGUGCCAA: 0.513
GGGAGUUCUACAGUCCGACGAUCAUUGUAAAGAAGCGAUGCAACUUGUCAAAUAUUUAAUAAAGAAUUAUGGAAGCUGGAACAUUUUCUACAUCAAGUGUUAUGGGUUGUUUGAUUUAAAGCUUCUUUGUGAAUGGAAUUCUCGGGUGCCAA: 1.58
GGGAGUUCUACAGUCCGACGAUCUUGCAAUUUGCUUUGAGACCUUCCCUGUCCUGGGUACUAGGUGCUAUGAAGCCAGCUGACAGAAGCAUCACAUGUCUUGGGCUGAUGCCGCUACCCGGUUCAUUUAUUUGUGGAAUUCUCGGGUGCCAA: 1.24

A few entries again (series 2):
ATGCTCAA: -0.0781
GACTTAGC: -0.127
CGCCCGAG: 0.109
CTTGACGA: 0.0561
GGACGCAC: 0.0558
AGCACCCT: -0.00607
